Results gathered from unrelated publications.
Compare with care: the assays were run in different laboratories. Several values in a cell are separate wells, animals, samples, runs or records.
Target: cGMP-inhibited 3',5'-cyclic phosphodiesterase 3A (PDE3A, Homo sapiens, UniProt Q14432)

SMILES | test | setting | scale | endpoint | result
C/C(=N\OCCCN1CCCCC1)c1ccc(C(F)(F)F)cc1 | antagonist, FP | 10 µM | – | inhibition | 2.17%
CCc1nnc(-c2c(OC)cc(-c3cnc4cc(-c5cnn(C)c5)ccn34)cc2OC)o1 | – | 10 µM | reference: control | specific binding | 99.9%
Cc1cc(Nc2nc(C[C@@]3(C(=O)O)CCN(Cc4cccc(Cl)c4F)[C@H](C)C3)cc(C)c2F)[nH]n1 | enzyme activity, inhibitor | 10 µM | – | inhibition | -0.09%
CS(C)(=O)=Nc1ccc(-c2ccc(-c3nc4cc(O[C@@H]5CO[C@H]6[C@@H]5OC[C@H]6O)[nH]c4cc3F)cc2)cc1 | enzyme activity, inhibitor | 10 µM | – | inhibition | 6%
C[C@H](NCc1ccc(-c2ccc(C(F)(F)F)cc2)cc1)C(N)=O | enzyme activity | 1 µM, with: 1.01 µM [3H]cAMP | – | inhibition | -7%
CCN(CC)CCOc1ccc(-c2nnn(Cc3ccc(OC)cc3)c2N)cc1 | enzyme activity | 10 µM | – | inhibition | -1.87%
O=C(O)c1ccc(-c2nc(-c3ccccc3Cl)c3sccn23)cc1 | radioligand binding, safety screen panel | 10 µM | reference: control | specific binding | 68% and 88.4%
Cc1cc(-c2ccc3ccccc3c2)nnc1NCCN1CCN(C)CC1 | enzyme activity | 10000 nM | – | inhibition | 5%

A few entries again:
SMILES | test | setting | scale | endpoint | result
C[C@H](NCc1ccc(-c2ccc(C(F)(F)F)cc2)cc1)C(N)=O | enzyme activity | 1 µM, with: 1.01 µM [3H]cAMP | – | inhibition | -7%
